Assay results of several laboratories.
A part holds a random share of what one study measured.

Sample 1 — method: universal PBM; molecule type: double-stranded DNA, one strand shown; matrix: in vitro; tested at: 600 nM; reading: higher = stronger binding
Target: Sal-like protein 4, full length isoform A (SALL4, Homo sapiens, UniProt Q9UJQ4, residues 1-1053)
Sequence of UniProt Q9UJQ4 (whole entry, looked up): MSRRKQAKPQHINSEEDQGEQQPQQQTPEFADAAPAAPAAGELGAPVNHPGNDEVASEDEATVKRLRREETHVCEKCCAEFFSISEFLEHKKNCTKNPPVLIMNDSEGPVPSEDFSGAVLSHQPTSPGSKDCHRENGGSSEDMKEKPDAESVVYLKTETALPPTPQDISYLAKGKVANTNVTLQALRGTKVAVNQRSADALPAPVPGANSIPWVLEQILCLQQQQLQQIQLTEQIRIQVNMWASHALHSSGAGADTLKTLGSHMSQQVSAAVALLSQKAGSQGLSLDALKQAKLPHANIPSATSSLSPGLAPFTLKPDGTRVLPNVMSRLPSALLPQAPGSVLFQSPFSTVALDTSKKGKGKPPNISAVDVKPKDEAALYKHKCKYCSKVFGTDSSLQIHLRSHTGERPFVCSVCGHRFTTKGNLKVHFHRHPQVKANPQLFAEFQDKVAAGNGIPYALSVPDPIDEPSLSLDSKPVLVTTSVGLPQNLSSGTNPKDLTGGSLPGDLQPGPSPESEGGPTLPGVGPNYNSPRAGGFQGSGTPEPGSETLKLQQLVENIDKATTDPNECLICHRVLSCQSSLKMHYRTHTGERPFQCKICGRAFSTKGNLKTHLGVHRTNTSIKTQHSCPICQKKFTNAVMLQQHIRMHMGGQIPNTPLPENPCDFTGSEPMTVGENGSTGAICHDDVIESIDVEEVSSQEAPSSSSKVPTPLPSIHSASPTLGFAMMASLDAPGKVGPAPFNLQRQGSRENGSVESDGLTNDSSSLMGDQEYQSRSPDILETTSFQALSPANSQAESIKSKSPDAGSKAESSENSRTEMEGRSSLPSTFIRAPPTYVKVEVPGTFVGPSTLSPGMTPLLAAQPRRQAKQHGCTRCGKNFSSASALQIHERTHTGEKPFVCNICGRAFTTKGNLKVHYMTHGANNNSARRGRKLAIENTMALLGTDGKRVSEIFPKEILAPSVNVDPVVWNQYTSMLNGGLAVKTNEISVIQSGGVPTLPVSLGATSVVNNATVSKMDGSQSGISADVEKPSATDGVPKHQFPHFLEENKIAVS
Setting: 8-mer, flanks averaged, mean of replicates
Strand | E-score
AGTCAGAA | 0.0199
GGATACCC | -0.238
ATGCCCTG | -0.143
CTACGCAA | -0.046
AATCTTCC | -0.106
CCGTTACG | -0.0973
AGCACACG | -0.156
CCGTGAGC | -0.361
AGATCGAT | 0.0612
TTCAGGAA | 0.0931
AAATCCTG | 0.0871
CGGTGCGC | -0.385
CTAGGGCC | -0.223
GAGAGCCA | -0.0783
AAGAAGGC | -0.00979
CCCGGAGG | -0.456
CGGACATA | 0.0821

Sample 2 — method: competition protein-binding microarray; molecule type: double-stranded DNA, one strand shown; matrix: in vitro; tested at: 2 µM; added: Cbf1 competitor, 0.05 µM; reading: higher = stronger binding; shared flanks, not repeated: … GTCTTGATTCGCTTGACGCTGCTG
Target: Phosphate system positive regulatory protein PHO4, full length, GST-tagged (PHO4, Saccharomyces cerevisiae, UniProt P07270, residues 1-312)
Setting: whole 60-bp probe, lowest competitor level
Target sequence (chain): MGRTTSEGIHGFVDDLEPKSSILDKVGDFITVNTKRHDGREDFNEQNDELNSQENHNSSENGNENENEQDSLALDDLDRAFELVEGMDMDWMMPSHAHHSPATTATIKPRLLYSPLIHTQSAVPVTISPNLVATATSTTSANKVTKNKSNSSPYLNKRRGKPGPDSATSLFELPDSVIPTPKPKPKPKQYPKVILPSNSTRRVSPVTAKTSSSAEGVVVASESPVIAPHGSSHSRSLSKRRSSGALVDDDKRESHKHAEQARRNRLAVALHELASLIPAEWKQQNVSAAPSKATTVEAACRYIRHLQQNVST
Strand | fluorescence intensity [a.u.]
CGTCCTAGTGATTGTACAGTGGGTGCCATGAGGAAG | 6380
TAGATTCCTAATTGTCTTGTGACGCTTAAAGCAGGG | 3260
GAAATTTTACTGATTGGCGTGGGACAGTTTTTGTTA | 5840
CTATGATCTTGTATTCATGTGATTGTAAATAATATT | 5850
TTGGATGCTTTGGACGACGTGATGGACCATTTGGAA | 4770
CTAACGAAGGTTTGTTCAGTGGGTGACAAGCCAAGT | 3460
CTGAACCGTCTTCGTCACGCTAGAGTTACTAGAAGA | 4070
AGTATCCTCGACCTACACGTCTTCACCATCGGCACC | 5560
GGTACAGACACAAAGCTCGTGCAAAGTGCTGTCCTA | 9880
AAATTACTAAGTTTTCACGTGTGGTACCCCGTATGA | 12700
AGCCGGCAGTTGAATCAGGTGCTTCATCACTGGCAT | 4110
AAATTACTAAGTTGGTCGGTGGGTGACGCCGTATGA | 3700
CTAACGAAGGTTTGTTGGGTGGGTGACAAGCCAAGT | 3690
AAAAGAGAATTTCCTGGCGTGCAAATCTCTGCAGAT | 4730

Sample 3 — method: RNA Bind-n-Seq; molecule type: RNA; matrix: in vitro; tested at: 100 nM; relative to: input RNA pool; reading: higher = stronger binding
Target: RING finger protein unkempt homolog, zinc fingers 1-6, SBP tag (UNK, Homo sapiens, UniProt Q9C0B0, residues 30-357)
Sequence of UniProt Q9C0B0 (30-357, looked up): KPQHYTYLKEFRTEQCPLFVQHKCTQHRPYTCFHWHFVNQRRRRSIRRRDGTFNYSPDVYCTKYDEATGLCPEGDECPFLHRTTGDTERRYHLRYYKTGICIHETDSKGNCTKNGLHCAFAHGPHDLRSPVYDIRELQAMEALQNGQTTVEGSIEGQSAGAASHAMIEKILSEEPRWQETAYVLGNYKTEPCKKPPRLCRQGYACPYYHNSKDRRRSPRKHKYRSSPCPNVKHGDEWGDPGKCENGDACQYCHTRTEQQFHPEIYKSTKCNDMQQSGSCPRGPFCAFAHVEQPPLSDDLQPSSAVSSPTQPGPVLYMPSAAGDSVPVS
Setting: RNA with constant flanks, vertebrate orthologous sites, ends assumed
Shared flanks, not repeated: GGGAGUUCUACAGUCCGACGAUC … CAACAGAGGAUUGAGCAUCA
Strand | bound/input enrichment [ratio]
GUGUUUUGGUACAAAGUUGUGUACCAAUACUCAUCUUCUUUACAUUAUACCAACUAUCCCUAGAAAUAGGAGUUCAAUAUUUUUCAAAAUUUUACAUUGCUGUAUAUUCAAAAUUUUAAA | 0.548
ACUGUUGUUAAGCACUGUGUUCCAGACCGUGUCUGACUUAGUGUAAUCUAGGAGAUUUUAUAGUUUUAUUUUAAUGAAACCCUGAUUGACGCACAGCAGUGGAGAGAACAGCGUCUUUUA | 1.49
UGAUCAUAUGUAGAGAAAAAUUUUCAUUGACCUCCUUGUGAAAUUCCCUAGCAGUUUAUUUAGAAUCUUAAUUUUUCUAAUACAAGUUUACUUCUUAGUCAUUUUAGCCCAUAAUUAAAA | 2.04
CUCGCCGCCCCACCCCUGACCUGGAAGAACUUGAGAGAGUUCGUUUUUGCCACCCGCGUGUGUGUGUGUGGCGUAUGUAUGUGCGUGUGUGUUUUGUAAAAGAUAUCAAGACCUGAUGAA | 0.387
CCGAAAGGCCAAAUUCCCUCCUCCCUUCUUCUGCUUCUACCAACUGGAAGCACAGAAAACUAGAAUUUCACUUAUUUUGUUUUUUAAAACAAUAUGAUUUCUUGUAACAUCCAAUAGGAA | 0.586
AUUCCUUCCUUUUUCUAUUUUUUUUCUUUCGUUCUUUCUUUUUUCCUUUUUUCUUUUUUGUAGUUGUUGUUACCCACGCCAUUUUACGUCUCCUUCACUGAAGGGCUAGAGUUUUAACUU | 5.1
AGGGCUGUGUAGAGUAGGGCCCUGUUCUCCUUAGGAUGUUGCUUCUUGAUUUUUUUUUUUUAGGGGUGGGUCAGGGUUGUGACACACCAGCCCAGGUGAGAGCUGCUGCGGGUCACCUCA | 1.01
UGGACACAGGUGCCCUGUGGAGCCCAGGAGGGAGACGGUCCUUGACUUCUGACCUUGACAUGGUAGAUAGGUGUGUGGUUUUUUUAUUUAAAGACAUUAAGACUUAACCCACUAAAAUUU | 0.357
GUUUUUGUUUUCCACAUGUGGCAGUGUUUGUAUUGAGGAUCUUCUGAGGAAGGGGUGCUAUAGCAGUGGUGCCUGGGUUCCUGGCCUCCAGUGCCCCCACCACCCCAACUGGCAGCUUUG | 0.529
AGUCCCCUGGGCCGGGACAGAUUUUUUUUUAACGUCUUGAAACUUAAAACUCUGUGCUUGUAGGAGACUGUAACCUUUUUGUCUUUUUUUUUUUAAACAAACAACCUCCACCUCCAGUGG | 0.768
UUACAGUCAUUGAUGGACUCUAUUUUUUUAUUAUUACUUGGACCUUGGUCGUUUUUAUACUAGCAACGAAAAAAUGUCUUGUUUUAAUUUGUUUUUUGGGGGUAUGGGGUGGGAAGUGUC | 0.785

Other studies, line by line
Substance | target | test | system | setting | scale | measurement | result
PhoQ, residues 284 288 289 292 302 303 SSLVEF | PhoP, residues 12 14 15 18 19 VQALL (Escherichia coli, UniProt P23836) | Sort-seq, measured: YFP reporter | E. coli | PhoQ-PhoP variant library, added: 10 µM Mg2+ | relative to: high Mg2+ state, higher = stronger signaling | fold induction | 15.1

Some of these lines once more (sample 1):
Strand | E-score
AATCTTCC | -0.106
CCGTTACG | -0.0973
AGCACACG | -0.156
CCGTGAGC | -0.361
